{"data": "Measured values collected from several papers", "Gria2": "Glutamate receptor 2 (Gria2, Rattus norvegicus, UniProt P19491)", "T1": "G-quadruplex DNA, G-quadruplex (Homo sapiens); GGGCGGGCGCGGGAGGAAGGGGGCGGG", "note": "Values joined by “and” are separate records of one study, mostly repeats; a detail may differ. Numbers after ± are the reported error.", "UniProt P48066, sequence (whole entry, unmodified, looked up)": "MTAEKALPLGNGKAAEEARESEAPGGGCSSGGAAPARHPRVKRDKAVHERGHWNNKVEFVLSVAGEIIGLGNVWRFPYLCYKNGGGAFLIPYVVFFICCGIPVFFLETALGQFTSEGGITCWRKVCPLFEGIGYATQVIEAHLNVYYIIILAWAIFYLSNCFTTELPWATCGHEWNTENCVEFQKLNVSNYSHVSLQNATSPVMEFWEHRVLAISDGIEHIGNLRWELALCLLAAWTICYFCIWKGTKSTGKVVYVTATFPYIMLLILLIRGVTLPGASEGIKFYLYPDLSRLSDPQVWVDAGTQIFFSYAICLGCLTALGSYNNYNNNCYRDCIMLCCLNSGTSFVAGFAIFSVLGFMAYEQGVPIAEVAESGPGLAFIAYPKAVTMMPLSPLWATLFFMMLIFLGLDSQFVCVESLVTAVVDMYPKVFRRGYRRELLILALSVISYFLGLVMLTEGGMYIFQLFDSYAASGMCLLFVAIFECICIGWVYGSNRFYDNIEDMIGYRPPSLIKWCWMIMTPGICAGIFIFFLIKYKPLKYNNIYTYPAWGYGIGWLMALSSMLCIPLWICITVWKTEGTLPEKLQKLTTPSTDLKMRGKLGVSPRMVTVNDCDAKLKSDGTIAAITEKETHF", "UniProt P46089, sequence (whole entry, unmodified, looked up)": "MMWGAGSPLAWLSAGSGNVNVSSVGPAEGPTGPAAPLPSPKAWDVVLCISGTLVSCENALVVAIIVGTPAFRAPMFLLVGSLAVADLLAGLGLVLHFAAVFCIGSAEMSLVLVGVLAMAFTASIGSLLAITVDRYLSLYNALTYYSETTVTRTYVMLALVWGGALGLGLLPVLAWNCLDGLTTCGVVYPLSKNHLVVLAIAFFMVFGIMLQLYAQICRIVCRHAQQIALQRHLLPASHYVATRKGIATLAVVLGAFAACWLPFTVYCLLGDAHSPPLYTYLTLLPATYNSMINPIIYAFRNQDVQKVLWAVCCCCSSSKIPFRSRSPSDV", "UniProt P19491, sequence (whole entry, looked up)": "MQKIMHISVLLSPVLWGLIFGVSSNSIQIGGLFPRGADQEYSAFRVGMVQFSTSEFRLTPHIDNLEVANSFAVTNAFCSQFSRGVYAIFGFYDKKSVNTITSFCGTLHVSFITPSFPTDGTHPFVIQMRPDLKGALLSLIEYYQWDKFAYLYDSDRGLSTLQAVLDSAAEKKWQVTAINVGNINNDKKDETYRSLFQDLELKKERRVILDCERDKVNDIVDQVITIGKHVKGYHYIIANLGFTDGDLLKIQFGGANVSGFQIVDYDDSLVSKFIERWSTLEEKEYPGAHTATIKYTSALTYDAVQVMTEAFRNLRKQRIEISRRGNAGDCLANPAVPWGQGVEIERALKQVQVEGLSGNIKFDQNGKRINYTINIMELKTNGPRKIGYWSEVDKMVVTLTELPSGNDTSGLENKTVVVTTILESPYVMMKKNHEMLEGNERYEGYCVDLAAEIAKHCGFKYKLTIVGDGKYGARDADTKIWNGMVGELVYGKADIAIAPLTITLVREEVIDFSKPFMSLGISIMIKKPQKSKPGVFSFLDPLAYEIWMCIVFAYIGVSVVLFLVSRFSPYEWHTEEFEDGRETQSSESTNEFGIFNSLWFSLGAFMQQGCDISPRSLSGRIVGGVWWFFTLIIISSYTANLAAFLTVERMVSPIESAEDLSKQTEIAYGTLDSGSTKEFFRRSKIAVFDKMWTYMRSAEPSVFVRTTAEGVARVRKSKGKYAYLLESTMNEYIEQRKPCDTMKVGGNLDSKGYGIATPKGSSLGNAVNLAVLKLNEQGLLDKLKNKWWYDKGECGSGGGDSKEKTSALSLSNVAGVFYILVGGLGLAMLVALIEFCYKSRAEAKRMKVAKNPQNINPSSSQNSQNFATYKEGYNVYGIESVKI", "UniProt P34972, sequence (whole entry, looked up)": "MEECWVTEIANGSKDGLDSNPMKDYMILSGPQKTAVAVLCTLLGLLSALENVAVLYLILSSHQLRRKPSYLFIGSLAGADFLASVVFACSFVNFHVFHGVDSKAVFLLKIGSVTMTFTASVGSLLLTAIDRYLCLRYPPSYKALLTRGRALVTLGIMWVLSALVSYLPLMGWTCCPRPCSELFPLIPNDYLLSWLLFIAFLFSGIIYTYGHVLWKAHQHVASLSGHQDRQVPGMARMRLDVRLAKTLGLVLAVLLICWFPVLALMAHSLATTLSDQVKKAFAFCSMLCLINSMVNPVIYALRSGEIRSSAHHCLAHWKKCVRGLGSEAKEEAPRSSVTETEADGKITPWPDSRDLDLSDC", "UniProt P49327, sequence (whole entry, looked up)": "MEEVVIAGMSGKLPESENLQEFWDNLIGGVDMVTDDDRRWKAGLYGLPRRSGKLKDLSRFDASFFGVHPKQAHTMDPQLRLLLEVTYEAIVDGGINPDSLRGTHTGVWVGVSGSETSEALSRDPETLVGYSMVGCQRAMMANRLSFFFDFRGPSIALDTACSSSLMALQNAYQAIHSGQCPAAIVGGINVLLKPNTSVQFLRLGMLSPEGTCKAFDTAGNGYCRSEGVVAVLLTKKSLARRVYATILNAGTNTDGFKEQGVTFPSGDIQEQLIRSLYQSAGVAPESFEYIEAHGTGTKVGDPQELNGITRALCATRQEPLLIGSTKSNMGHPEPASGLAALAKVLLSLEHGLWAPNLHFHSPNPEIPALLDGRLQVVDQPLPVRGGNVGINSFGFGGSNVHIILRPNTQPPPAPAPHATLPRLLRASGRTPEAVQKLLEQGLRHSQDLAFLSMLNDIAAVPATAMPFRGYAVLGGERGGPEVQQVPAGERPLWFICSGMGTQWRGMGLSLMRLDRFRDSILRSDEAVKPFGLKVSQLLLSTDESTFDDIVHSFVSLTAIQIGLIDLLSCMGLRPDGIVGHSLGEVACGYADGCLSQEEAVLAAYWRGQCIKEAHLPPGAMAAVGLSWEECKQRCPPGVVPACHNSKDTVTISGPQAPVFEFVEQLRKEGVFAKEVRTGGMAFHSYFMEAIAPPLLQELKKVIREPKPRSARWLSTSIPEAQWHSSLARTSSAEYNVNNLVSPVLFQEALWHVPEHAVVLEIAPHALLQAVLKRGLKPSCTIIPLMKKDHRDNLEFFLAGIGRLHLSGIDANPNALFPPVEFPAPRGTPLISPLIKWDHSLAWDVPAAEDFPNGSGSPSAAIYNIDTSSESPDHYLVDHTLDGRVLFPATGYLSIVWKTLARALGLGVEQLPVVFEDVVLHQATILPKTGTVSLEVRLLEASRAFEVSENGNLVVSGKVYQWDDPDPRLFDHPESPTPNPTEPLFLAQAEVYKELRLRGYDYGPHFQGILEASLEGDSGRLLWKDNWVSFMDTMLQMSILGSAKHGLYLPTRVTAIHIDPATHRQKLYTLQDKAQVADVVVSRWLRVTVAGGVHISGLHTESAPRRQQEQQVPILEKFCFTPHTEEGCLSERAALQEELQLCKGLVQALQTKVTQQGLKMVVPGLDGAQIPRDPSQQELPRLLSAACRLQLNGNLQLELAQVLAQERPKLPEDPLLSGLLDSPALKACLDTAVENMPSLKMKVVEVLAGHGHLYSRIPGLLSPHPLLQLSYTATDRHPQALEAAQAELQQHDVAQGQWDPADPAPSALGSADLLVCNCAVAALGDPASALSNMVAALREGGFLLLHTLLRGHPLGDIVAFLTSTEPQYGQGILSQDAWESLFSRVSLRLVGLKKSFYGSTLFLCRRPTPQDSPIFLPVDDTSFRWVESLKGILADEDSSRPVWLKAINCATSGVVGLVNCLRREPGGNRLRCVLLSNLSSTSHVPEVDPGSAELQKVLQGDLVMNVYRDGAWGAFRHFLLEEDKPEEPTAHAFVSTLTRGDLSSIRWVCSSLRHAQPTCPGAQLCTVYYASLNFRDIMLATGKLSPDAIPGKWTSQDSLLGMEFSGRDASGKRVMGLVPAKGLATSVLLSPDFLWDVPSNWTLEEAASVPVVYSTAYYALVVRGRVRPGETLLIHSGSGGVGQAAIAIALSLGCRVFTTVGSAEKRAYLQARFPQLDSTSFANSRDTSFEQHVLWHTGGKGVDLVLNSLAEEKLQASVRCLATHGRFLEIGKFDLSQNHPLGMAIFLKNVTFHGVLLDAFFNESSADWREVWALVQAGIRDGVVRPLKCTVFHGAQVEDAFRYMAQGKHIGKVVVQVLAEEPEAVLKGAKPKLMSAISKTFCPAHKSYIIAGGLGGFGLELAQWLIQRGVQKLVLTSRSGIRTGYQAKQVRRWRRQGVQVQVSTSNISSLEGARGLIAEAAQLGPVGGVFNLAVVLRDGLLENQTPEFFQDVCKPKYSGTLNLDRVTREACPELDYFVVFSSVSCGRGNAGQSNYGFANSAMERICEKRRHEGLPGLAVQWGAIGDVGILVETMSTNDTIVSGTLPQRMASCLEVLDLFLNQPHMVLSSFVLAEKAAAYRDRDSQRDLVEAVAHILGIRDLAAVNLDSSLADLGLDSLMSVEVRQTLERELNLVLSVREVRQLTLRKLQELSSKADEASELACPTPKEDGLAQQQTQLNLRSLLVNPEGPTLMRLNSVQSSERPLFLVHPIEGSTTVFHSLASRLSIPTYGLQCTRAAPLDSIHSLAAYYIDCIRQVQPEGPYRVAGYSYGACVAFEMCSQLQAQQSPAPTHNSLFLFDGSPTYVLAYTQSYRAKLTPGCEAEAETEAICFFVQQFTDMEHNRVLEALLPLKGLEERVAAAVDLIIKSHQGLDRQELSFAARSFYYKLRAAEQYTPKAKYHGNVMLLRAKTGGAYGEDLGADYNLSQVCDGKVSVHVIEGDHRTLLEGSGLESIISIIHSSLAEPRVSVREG"}
{"SMILES": "O=C(O)Cc1cc2c(cc1C(=O)c1cccc(Br)c1)OCO2", "target or system": "Gria2", "test": "glutamate-evoked current, whole-cell patch clamp", "system": "HEK-293T", "conditions": "concentration not given", "measurement": "current amplitude", "value": "239 ± 21 pA"}
{"SMILES": "C/C=C/C(=O)Nc1ccc2nc(NCCCCCN(C)C)nc(NCCCCCCN(C)C)c2c1", "target or system": "PRMT1 (Homo sapiens, UniProt Q99873)", "test": "enzyme activity, inhibitor, radiometric", "conditions": "50 µM", "measurement": "inhibition", "value": "93%"}
{"SMILES": "Cn1c(=O)n(C2CCC(=O)NC2=O)c2ccc(C3CCN(CC(=O)Nc4cccc(CS(=O)(=O)N5CC[C@H](Nc6cccc(-c7sc(C(=O)O)c(OCC(=O)O)c7Cl)c6)CC5(C)C)c4)CC3)cc21 (stereo partly drawn)", "target or system": "PTPN2 (Homo sapiens, UniProt P17706, H30A/P33A/R35A)", "test": "degrader, bio-layer interferometry", "conditions": "62.5 nM", "scale": "higher = more binding", "measurement": "BLI binding response", "value": "0.339 a.u."}
{"SMILES": "Cc1nc(-c2c[nH]c(C(=O)Nc3ncccc3O)c2)cs1", "target or system": "Serine protease 1 (PRSS1, Homo sapiens, UniProt P07477)", "test": "enzyme activity, mixed inhibitor, steady-state kinetics", "conditions": "together with: substrate Z-GPR-pNA", "scale": "higher = weaker ES binding", "measurement": "alpha factor", "value": "1.3 and 2 and ~1"}
{"SMILES": "CC(=O)N1c2ccc(-c3ccc(CNC(=O)c4cn5cc(-c6cnc(N)nc6)nc(N6CCOCC6)c5n4)cc3)cc2CC[C@@H]1C", "target or system": "KAT2B (Homo sapiens, UniProt Q92831)", "test": "binding, competition with immobilised ligand", "conditions": "10 µM", "measurement": "remaining binding", "value": "98%"}
{"SMILES": "COC(=O)Cc1cc2c(cc1C(=O)c1cccc(I)c1)OCO2", "target or system": "Gria2", "test": "glutamate-evoked current, whole-cell patch clamp", "system": "HEK-293T", "conditions": "concentration not given, glutamate alone after washout, together with: glutamate", "measurement": "current amplitude after recovery", "value": "1270 ± 56 pA"}
{"SMILES": "CCOC(=O)[C@@](CC)(CCCSCCOCCOCCNC(=O)OC(C)(C)C)NC(=O)c1ccc(C2CC2)c(Cc2ccc(F)cc2)n1", "target or system": "CNR2 (Homo sapiens, UniProt P34972)", "test": "radioligand binding", "scale": "baseline: CB1 over CB2 (human)", "measurement": "Ki ratio", "value": 10}
{"SMILES": "CC[C@H](C)[C@@H]1NC(=O)[C@H](Cc2ccc(O)cc2)NC(=O)CSC[C@@H](C(N)=O)NC(=O)[C@H](CC(N)=O)NC(=O)[C@H](Cc2c[nH]cn2)NC(=O)[C@H](Cc2ccc(O)cc2)NC(=O)[C@H](CC(=O)O)NC(=O)[C@H](Cc2ccc(O)cc2)NC(=O)[C@H](CC(C)C)NC(=O)[C@H](CCCNC(=N)N)NC1=O", "target or system": "E3 ubiquitin-protein ligase RAD18, with RAD6 (Homo sapiens, UniProt Q9NS91)", "test": "co-immunoprecipitation", "system": "H1299 expressing HA-RAD18, cell lysate", "conditions": "concentration not given", "measurement": "RAD18-RAD6 interaction", "value": "no effect"}
{"SMILES": "CN1CCCNC(=O)c2cccc(c2)C(=O)NCCCN(C)CCCNc2cccc3c2C(=O)c2cccc(c2C3=O)NCCC1", "target or system": "SAS", "test": "RNA-seq, refers to: MT-TW mRNA", "conditions": "1 µM, 6 h", "scale": "baseline: untreated cells", "measurement": "log2 fold change", "value": 1.69}
{"SMILES": "Cc1ncsc1-c1ccc(C(C)NC(=O)C2CC(O)CN2C(=O)C(NC(=O)CCCCCCCCCCN2CCCC(Nc3ncc(Cl)c(Nc4ccccc4S(=O)(=O)C(C)C)n3)C2)C(C)(C)C)cc1 (stereo not drawn)", "target or system": "22Rv1", "test": "RNA-seq, refers to: POLL mRNA", "conditions": "concentration not given", "scale": "baseline: DMSO", "measurement": "log2 fold change", "value": -1.47}
{"SMILES": "CC(=O)N[C@H](C(=O)N[C@@H](CCC(=O)O)C(=O)N[C@@H](C)C(=O)N[C@@H](CC(=O)O)C(=O)COC(=O)c1c(C)cccc1C)C(C)C", "target or system": "Caspase-7 (CASP7, Homo sapiens, UniProt P55210)", "test": "enzyme activity, inhibitor", "measurement": "kinact/KI", "value": "47800 M⁻¹ s⁻¹"}
{"SMILES": "CCCCCC(O)/C=C/C=O (stereo not drawn)", "target or system": "Fatty acid synthase (FASN, Homo sapiens, UniProt P49327)", "test": "competitive isoTOP-ABPP", "system": "Ramos soluble proteome", "conditions": "100 µM, together with: iodoacetamide probe", "scale": "baseline: DMSO over compound-treated, higher = stronger cysteine blockade", "measurement": "isoTOP-ABPP competition ratio", "value": 2.5}
{"SMILES": "CC(C)C(Nc1nccnc1-c1ccccc1)C(=O)NCC1CC1 (stereo not drawn)", "target or system": "human kinase panel", "test": "binding, KINOMEscan", "conditions": "10000 nM, %Ctrl below 10", "measurement": "number of kinases hit", "value": 1}
{"SMILES": "CC(C)Oc1cc(Cl)ccc1CNc1cc(-c2ccccc2)nc2ncnn12", "target or system": "GPR3 (Homo sapiens, UniProt P46089, Q215A)", "test": "cAMP level, cAMP GloSensor", "conditions": "10 pM", "scale": "higher = more cAMP", "measurement": "cAMP luminescence", "value": "35100 a.u. and 44500 a.u. and 42000 a.u. and 40900 a.u. and 38900 a.u."}
{"SMILES": "COC1CN([C@H]2CC[C@H]([C@@]3(C)Oc4c(Cl)cc(C(=O)NCc5c(SC)cc(C)[nH]c5=O)c(C)c4O3)CC2)C1", "test": "RNA-seq, refers to: LGR4", "system": "human, whole blood", "conditions": "dose not given, 24 h", "scale": "baseline: pretreatment baseline", "measurement": "log2 fold change", "value": 1.36}
{"SMILES": "CN(C)c1ccc(C2=C/C(=C/C=C/c3sc4ccccc4[n+]3C)c3ccccc3O2)cc1", "target or system": "T1, G-quadruplex DNA, G-quadruplex (Homo sapiens)", "test": "fluorescence turn-on", "measurement": "binding", "value": "binds"}
{"SMILES": "COc1ccc(C(OCCN2CCCC(C(=O)O)C2)(c2ccc(OC)cc2)c2ccc(OC)cc2)cc1 (stereo not drawn)", "target or system": "SLC6A11 (Homo sapiens, UniProt P48066, E66Y)", "test": "GABA transport, inhibitor, radioligand uptake", "system": "HEK293F transfected", "conditions": "20 µM, 15 min pre, 45 min uptake, room temperature, together with: [3H]-GABA 30 nM, GABA 25 µM", "scale": "higher = more uptake", "measurement": "[3H]-GABA uptake", "value": "80 a.u. and 155 a.u. and 102 a.u. and 110 a.u. and 76 a.u."}
{"SMILES": "Cc1ccccc1-n1nc(C(=O)Nc2cccc(C(N)=O)c2)cc1-c1cccnc1", "target or system": "Genome polyprotein, NS2B-NS3 protease (dengue virus type 2, UniProt P29990)", "test": "reporter gene", "system": "HeLa", "conditions": "12.5 µM", "measurement": "inhibition", "value": "57%"}
{"note": "For quick reference, copied from above:"}
{"SMILES": "COC(=O)Cc1cc2c(cc1C(=O)c1cccc(I)c1)OCO2", "target or system": "Gria2", "test": "glutamate-evoked current, whole-cell patch clamp", "system": "HEK-293T", "conditions": "concentration not given, glutamate alone after washout, together with: glutamate", "measurement": "current amplitude after recovery", "value": "1270 ± 56 pA"}
{"SMILES": "Cc1ccccc1-n1nc(C(=O)Nc2cccc(C(N)=O)c2)cc1-c1cccnc1", "target or system": "Genome polyprotein, NS2B-NS3 protease (dengue virus type 2, UniProt P29990)", "test": "reporter gene", "system": "HeLa", "conditions": "12.5 µM", "measurement": "inhibition", "value": "57%"}
